Experimental data pooled from the literature.
Each line is one published result; not all experiments were run side by side.

| SMILES | assay | test system | conditions | scale | quantity | result |
| --- | --- | --- | --- | --- | --- | --- |
| CC(C)n1c(C2CCNCC2)nc2c([N+](=O)[O-])c(Br)c(Br)cc21 | measured: Neutropenia | AML patients | dose not given, all doses |  | grade ≥3 adverse events | 25% |
| COc1cc2c(Oc3ccc4[nH]c(C)cc4c3F)ccnc2cc1OCC1(N)CC1 |  | paediatric recurrent refractory sarcoma | concentration not given, whole group |  | grade 1 or 2 Hematochezia | 5.9% |
| Cc1cc(C)c(CNC(=O)c2cc(Cl)c3c(c2C)O[C@@](C)([C@H]2CC[C@H](N(C)C)CC2)O3)c(=O)[nH]1 |  | relapsed/refractory NHL patients | dose not given, treatment-related TEAEs, safety set |  | grade 5 any TEAE incidence | 0% |
| CC(=O)c1c(C)c2cnc(Nc3ccc(C4CCN(CCS(C)(=O)=O)CC4)cn3)nc2n(C2CCCC2)c1=O |  | HR+/HER2- advanced breast cancer patients | oral, dose not given |  | grade 3/4 leukopenia TEAE | 36.8 % patients |
| N#CCNC(=O)c1ccc(-c2ccnc(Nc3ccc(N4CCOCC4)cc3)n2)cc1 |  | healthy volunteers | oral, 200 mg, added: midazolam 5 mg |  | grade 3 adverse events | 0% |
| N[C@@H]1c2ccccc2OC12CCN(c1cnc3c(N4CCCc5ncccc54)n[nH]c3n1)CC2 |  | patients advanced metastatic solid tumours | oral, 60 mg once daily, pooled cohort |  | grade ≥3 peripheral oedema TEAE | 0% |
| COc1ccc(-c2c(-c3ccc(C#N)c(F)c3)nc(N3CCC(N)CC3)n(C)c2=O)cc1F | measured: maculo-papular rash | relapsed/refractory MZL patients | oral, 60 mg, dose expansion |  | grade 3-4 TRAE incidence | 0% |
| NC(=O)[C@H]1CCN(c2ncnc(N)c2F)C[C@@H]1N1CCC[C@@H](Nc2cc(Cl)cc(C(F)(F)F)c2)C1=O |  | B-cell malignancy patients | oral, 41 mg twice daily, dose |  | grade ≥3 leukopenia | 10% |
| CCN1[C@@H](C(=O)NC23CCC(C(=O)O)(CC2)CC3)[C@H](c2cccc(Cl)c2F)[C@]2(C(=O)Nc3cc(Cl)ccc32)C12CCCCC2 |  | patients with advanced solid tumours | oral, 100 mg |  | grade ≥3 adverse event incidence | 27.3% |
| Nc1nc2cc(-c3ccc4ncc(C(=O)N5CCOCC5)n4c3)ccc2o1 |  | advanced solid tumour patients | dose not given, all schedules | baseline: patients | grade ≥3 drug-related AEs | 27% |
| CCN(Cc1nc2c(N)nc3cc(-c4cc[nH]n4)ccc3c2[nH]1)C(C)=O |  | cancer patients | intratumoral, dose not given, monotherapy |  | grade 2 Chills TRAE | 0 |

Some of these lines once more:
| SMILES | assay | test system | conditions | scale | quantity | result |
| --- | --- | --- | --- | --- | --- | --- |
| CC(=O)c1c(C)c2cnc(Nc3ccc(C4CCN(CCS(C)(=O)=O)CC4)cn3)nc2n(C2CCCC2)c1=O |  | HR+/HER2- advanced breast cancer patients | oral, dose not given |  | grade 3/4 leukopenia TEAE | 36.8 % patients |
| CC(C)n1c(C2CCNCC2)nc2c([N+](=O)[O-])c(Br)c(Br)cc21 | measured: Neutropenia | AML patients | dose not given, all doses |  | grade ≥3 adverse events | 25% |
